Results of several laboratories.
A part holds a random share of what one study measured.

Set 1
Target: Replicase polyprotein 1ab, polymerase (rep, Severe acute respiratory syndrome coronavirus 2, UniProt P0DTD1)
Observed: enzyme activity
Mode: inhibitor
Tested at: 20 µM
SMILES	inhibition [%]
CO[C@H]1/C=C/O[C@@]2(C)Oc3c(C)c(O)c4c(O)c(c(/C=N/N5CCN(C6CCCC6)CC5)c(O)c4c3C2=O)NC(=O)/C(C)=C\C=C\[C@H](C)[C@H](O)[C@@H](C)[C@@H](O)[C@@H](C)[C@H](OC(C)=O)[C@@H]1C	16
CC[C@]1(O)C[C@@H]2CN(CCc3c([nH]c4ccccc34)[C@@](C(=O)OC)(c3cc4c(cc3OC)N(C)[C@H]3[C@@](O)(C(=O)OC)[C@H](OC(C)=O)[C@]5(CC)C=CCN6CC[C@]43[C@@H]65)C2)C1	1.87
CC[C@H](C)C(=O)O[C@H]1C[C@H](O)C=C2C=C[C@H](C)[C@H](CC[C@@H](O)C[C@@H](O)CC(=O)O)[C@H]21	-0.21
CCO[C@@H](Cc1ccc(OCCn2c(C)ccc2-c2ccc(SC)cc2)cc1)C(=O)O	0.42
O=C1CCCC(=O)C1C(=O)c1ccc(C(F)(F)F)cc1[N+](=O)[O-]	1.1
CN(C)CCc1c[nH]c2ccc(CS(=O)(=O)N3CCCC3)cc12	1.97
C#C[C@]1(O)CC[C@H]2[C@@H]3CCC4=CCCC[C@@H]4[C@H]3CC[C@@]21C	0
CS[C@H]1SC[C@H]2C(=O)N(C)[C@@H](C(C)C)C(=O)OC[C@@H](NC(=O)c3cnc4ccccc4n3)C(=O)N[C@@H](C)C(=O)N(C)[C@@H]1C(=O)N(C)[C@@H](C(C)C)C(=O)OC[C@@H](NC(=O)c1cnc3ccccc3n1)C(=O)N[C@@H](C)C(=O)N2C	2.79
Cc1cccc(C(=O)NCN2CCN(c3ccccc3C#N)CC2)c1	-1.83
CCCCCCOC(=O)CCC(=O)CN	-3.24
COc1ccc2[nH]c(-c3ccccc3)c(CCNC(C)=O)c2c1	1.01
O=C(N[C@H]1CN2CCC1CC2)c1cc2cccc(Cl)c2s1	-1.1
CC#C[C@@H](CC(=O)O)c1ccc(OCc2cccc(-c3ccc(C(F)(F)F)cc3)c2)cc1	3.38
CO/N=C(\C(=O)N[C@@H]1C(=O)N2C(C(=O)O)=C(COC(N)=O)CS[C@H]12)c1ccco1	0.63
O=[N+]([O-])c1cn2c(n1)OC[C@@H](OCc1ccc(-c3ccc(OC(F)(F)F)cc3)nc1)C2	2.36
O=C(O)Cc1ccc(OCCNC[C@H](O)c2ccccc2)cc1	5.85
CN1C(=O)N(C)C2C1N(C)C(=O)N2C (centres unmarked)	3.08
CN1[C@@H]2CC[C@H]1CC(OC(c1ccccc1)c1ccc(Cl)cc1)C2 (some centres unmarked)	2.94
CC[C@H]1OC(=O)C[C@@H](O)[C@H](C)[C@@H](O[C@@H]2O[C@H](C)[C@@H](O[C@H]3C[C@@](C)(O)[C@@H](O)[C@H](C)O3)[C@H](N(C)C)[C@H]2O)[C@@H](CC=O)C[C@@H](C)C(=O)/C=C/C(C)=C/[C@@H]1CO[C@@H]1O[C@H](C)[C@@H](O)[C@@H](OC)[C@H]1OC	-10.9
CC(=O)O[C@@H]1CC[C@@]2(C)[C@@H](CC[C@]3(C)[C@@H]2C(=O)C=C2[C@@H]4[C@@H](C)[C@H](C)CC[C@]4(C)CC[C@]23C)[C@@]1(C)C(=O)O	-1
CO[C@H]1/C=C/O[C@@]2(C)Oc3c(C)c(O)c4c(O)c(c(/C=N/N=C/N5CCCCC5)c(O)c4c3C2=O)NC(=O)/C(C)=C\C=C\[C@H](C)[C@H](O)[C@@H](C)[C@@H](O)[C@@H](C)[C@H](OC(C)=O)[C@@H]1C	8.31
OC(c1ccccc1)C1CCN(CCc2ccccc2)CC1 (centres unmarked)	-2.69
CN(C(=O)c1c(O)c2ccccc2n(C)c1=O)c1ccccc1	1.64
C=CC(N)CCC(=O)O (centres unmarked)	-2.07
COc1cc2c(NC3CCN(C4CCCCC4)CC3)nc(N3CCCN(C(C)C)CC3)nc2cc1OCCCN1CCCCC1	9.53

Set 2
Target: Interferon regulatory factor 5, full length, phosphomimetic (IRF5, Homo sapiens, UniProt Q13568-2, residues 1-514, K96S/S451D/S453D/S456D/S462D)
Technique: protein-binding microarray
Molecule type: double-stranded DNA, one strand shown
Matrix: in vitro
Tested at: 250 nM
Notes: 60-bp whole probe
Together with: salmon DNA 0.4 mg/ml
Reference: random background probes
Direction: higher = stronger binding
Shared flanks, not repeated: GCCTAGCAC … GTCTTGATTCGCTTGACGCTGCTG
Sequence	log fluorescence [z-score]
TTAGGTCTCCTTTTCCTTAAGTGCTAG	0.251
TTAGAACTGAGACTGGCTTAGTGCTAG	-0.317
GACGGTTTCGGTCTCGGGGCGTGCTAG	9.74
TCAAGTTTTCCTATGTCACTGTGCTAG	1.01
TTAGAGCTGGGGTATCGATTAGTGCTA	1.48
TCAGCTTTCTTTATGCAACTGTGCTAG	1.54
TTAGATTTCAGTCTCGAGTAGTGCTAG	2.1
GACGCTCTCGGTTTCGGGACGTGCTAG	3.51

Set 3
Target: Replicase polyprotein 1ab, main protease (rep, Severe acute respiratory syndrome coronavirus 2, UniProt P0DTD1)
Observed: enzyme activity
Mode: inhibitor
Tested at: 20 µM
Notes: hit confirmation, with DTT
SMILES	inhibition [%]
O=[N+]([O-])C(Br)(CO)CO	-5.7
COc1cccc2c1C(=O)c1c(O)c3c(c(O)c1C2=O)C[C@@](O)(/C(CO)=N/NC(=O)CCCCCN1C(=O)C=CC1=O)C[C@@H]3O[C@H]1C[C@H](N)[C@H](O)[C@H](C)O1	-9.5
C[C@@H]1O[C@@H](O[C@@H]2[C@@H](O)[C@H](OCCc3ccc(O)c(O)c3)O[C@H](CO)[C@H]2OC(=O)/C=C/c2ccc(O)c(O)c2)[C@H](O)[C@H](O)[C@H]1O	-16.8
CC(C)c1cc(CNc2nc(Nc3cc(C4CC4)[nH]n3)cc(N3CCN(C)CC3)n2)on1	-9.6

Set 4
Cell line: HEK-293T/ACE2
Tested at: concentration not given
Time: 16 (unit not given)
Reference: vehicle
SMILES	viability [%]
CN(C)c1ccc(C(=C2C=CC(=[N+](C)C)C=C2)c2ccc(N(C)C)cc2)cc1	82.2
CCCCOc1ccc(OCCCN2CCOCC2)cc1	101
C[N+]1(C)[C@@H]2C[C@@H](OC(=O)[C@H](CO)c3ccccc3)C[C@H]1[C@@H]1O[C@@H]12	99.7

Set 5
Target: RNA binding protein fox-1 homolog 2, RRM domain, GST-SBP tag (RBFOX2, Homo sapiens, UniProt O43251-10, residues 100-194)
Technique: RNA Bind-n-Seq
Molecule type: RNA
Matrix: in vitro
Tested at: 365 nM
Notes: natural RNA segment, single round, ends assumed
Reference: no-protein control
Direction: higher = stronger binding
Shared flanks, not repeated: GGGAGUUCUACAGUCCGACGAUC … UGGAAUUCUCGGGUGCCAA
Residues (chain): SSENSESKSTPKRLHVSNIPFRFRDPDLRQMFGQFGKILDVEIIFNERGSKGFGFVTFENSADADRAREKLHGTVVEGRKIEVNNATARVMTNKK
Sequence	RBNS enrichment (R)
CCUGCCCAAACUGUCCAUUCCAGCAGCUCCUGCCCCCUUCUCUGUACUUGCUUCUGUCUGACACCUUCUCCCUGUUGGCCUGAAGGGAGCUUAGAAUGCAGCCCUACCUG	1.4
CAGUAUUCAGCGAGCACGCGAACCCACGCUUCUUACCUUUACCUUGAGCUGGGACUGGCUUGGGGCUUAGAACCAAGAACAGGUAGAAAAUUCCUUAAACAAAGCAUUCC	1.88
UAGGGUUUAGAUUAUUUGACAGAAGUGCCUCUUAUGCAGACUGCUUCCCUUUGGGUAGCUGUGAUCUGCAGUAAGUCUGGGGAGAACCUGAGUACACCACUACACGUUGG	0.161
ACUCAAGAAGCUGAGAUGGGAGGAUCCUGAGCUCAGGAGGUCAAGGCUGCAGUGAGCCGAGAUUGUGCCACUGCACUGCAGCUGGGGUGACAGUGCAAGACCCUGUCUCA	0.693
GGUUCAUCAGAAUGGGCGUGUCUGCCUUCACAGUGCUGUCCUAAGUAAAUAAAGGGAUUGGUGAAGACGUCUCAGACUUUUUUUUUUAAGGAGUUCUCGGGGUGGAGGGA	0.981
AGUAUGUGAAGAAAUAUGAUGGUGUAGAAAUGUCCUGGGUUUAAGAAGUGAUUUCUCAAAAGUAAAGAUACUAUCCCAGAGGGUCGUGGGCAGAAAUGAAGGGAUUUCAU	3.66
ACUAUCCACAGAUAUAGCCAAGUAGAUUUGGGUAGAGGAUACUAUUUCCAGAAUAGUGUUUAGCUCACCUAGGGGGAUAUGUUUGUAUACACAUUUGCAUAUACCCACAU	0.292
GUUACAUAGCAUUCAUAUAGGAAUGAGCAGAGACAUCUGAGAAGAGUGGGAGCUCAUGGGUGACAGUAAAACUUAGGUGUCUCAGAACUUAACAUUUAGUAAAGUGAUGU	0.455

Set 6
Target: Ras GTPase-activating protein-binding protein 1, RRM domain (G3BP1, Homo sapiens, UniProt Q13283)
Chain of UniProt Q13283 (whole entry, looked up): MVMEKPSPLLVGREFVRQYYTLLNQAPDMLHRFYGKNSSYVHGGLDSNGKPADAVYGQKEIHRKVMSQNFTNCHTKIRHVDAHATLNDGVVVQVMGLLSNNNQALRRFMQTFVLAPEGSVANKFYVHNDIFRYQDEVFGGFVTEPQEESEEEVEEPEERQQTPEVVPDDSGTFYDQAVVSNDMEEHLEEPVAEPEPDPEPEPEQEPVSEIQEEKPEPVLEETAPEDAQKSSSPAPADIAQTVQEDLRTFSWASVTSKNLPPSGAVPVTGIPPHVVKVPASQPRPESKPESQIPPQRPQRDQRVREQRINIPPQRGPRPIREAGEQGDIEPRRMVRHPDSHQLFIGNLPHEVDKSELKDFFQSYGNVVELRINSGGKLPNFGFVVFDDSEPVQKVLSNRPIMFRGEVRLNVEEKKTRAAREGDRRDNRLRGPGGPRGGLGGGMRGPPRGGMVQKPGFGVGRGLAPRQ
Technique: RNA Bind-n-Seq
Molecule type: RNA
Matrix: in vitro
Tested at: 1 µM
Notes: whole 134-nt RNA, ends assumed
Together with: 150 mM KCl
Reference: input library
Direction: higher = stronger binding
Shared flanks, not repeated: GGGAGUUCUACAGUCCGACGAUC … UGGAAUUCUCGGGUGUCAAGG
Sequence	log2 enrichment
GCAGGAAGUAAAAACAAAUGGAAAUGCUUCGGAUAGUGGCAGGGGUGGAGGUUGCUAAGGAAAGGGUGGGAUGGGAGUGGGUAAAGAGUU	0.797
GUCCUGUGCUACACAUCGUAUGUACCGAAUCAAACCCCCAAAUUUUUAAACCCCCAAAAAAGUAUUAUGUUACGCCGUUCGGAUCUGCAC	-0.392
CUGUGCUACACAUCGUAUGUACCGAAUCGGGGAAAAAAAGGGGAAAAAGGGGUUUUUGGGGAAAGUAUUAUGUUACGCCGUUCGGAUCUG	1.06
UGGCCCUGGUGGCAUGCGGGGAGGAAGAGGUGGCCUCAUGGAUCGUGGUGGUCCCGGUGGAAUGUUCAGAGGUGACCGUGGUGGAGACAG	1.06
CCUCAAGUCCUGUGCUACACAUCGUAUGUACCGAAUCGGCCGGCCGGGCCGGGAAAGUAUUAUGUUACGCCGUUCGGAUCUGCACUUCCA	-0.394
ACCAUGCAGGUGGGCAUCUUUGGGAAGUGGGGCAAGGGGGGGAUAGGGAGGGGGGUAACACUAAAGGAACAGGUGGUCCCAGGUCGUUUC	-0.322
UGGCCCUGGUGGCAUGCGGGGAGGAAGAGGUGGCCUCAUGGAUCGUGGUGGUCCCGGUGGGAUGUUCAGAGGUGGCCGUGGUGGAGACAG	1.09
CAAGUCCUGUGCUACACAUCGUAUGUACCGAAUCGGUGGUUUUUGGAAAAAAAGGAAAGUAUUAUGUUACGCCGUUCGGAUCUGCACUUC	-0.111

Some of these lines once more (set 1):
SMILES	inhibition [%]
O=C1CCCC(=O)C1C(=O)c1ccc(C(F)(F)F)cc1[N+](=O)[O-]	1.1
O=C(O)Cc1ccc(OCCNC[C@H](O)c2ccccc2)cc1	5.85
CC(=O)O[C@@H]1CC[C@@]2(C)[C@@H](CC[C@]3(C)[C@@H]2C(=O)C=C2[C@@H]4[C@@H](C)[C@H](C)CC[C@]4(C)CC[C@]23C)[C@@]1(C)C(=O)O	-1
CO[C@H]1/C=C/O[C@@]2(C)Oc3c(C)c(O)c4c(O)c(c(/C=N/N5CCN(C6CCCC6)CC5)c(O)c4c3C2=O)NC(=O)/C(C)=C\C=C\[C@H](C)[C@H](O)[C@@H](C)[C@@H](O)[C@@H](C)[C@H](OC(C)=O)[C@@H]1C	16
COc1cc2c(NC3CCN(C4CCCCC4)CC3)nc(N3CCCN(C(C)C)CC3)nc2cc1OCCCN1CCCCC1	9.53
OC(c1ccccc1)C1CCN(CCc2ccccc2)CC1 (centres unmarked)	-2.69
CO/N=C(\C(=O)N[C@@H]1C(=O)N2C(C(=O)O)=C(COC(N)=O)CS[C@H]12)c1ccco1	0.63
